Published values pooled from the literature.
Parts stem from different laboratories: compare values within a part only. Several values in a cell are separate wells, animals, samples, runs or records.
UniProt P04629, sequence (whole entry, looked up): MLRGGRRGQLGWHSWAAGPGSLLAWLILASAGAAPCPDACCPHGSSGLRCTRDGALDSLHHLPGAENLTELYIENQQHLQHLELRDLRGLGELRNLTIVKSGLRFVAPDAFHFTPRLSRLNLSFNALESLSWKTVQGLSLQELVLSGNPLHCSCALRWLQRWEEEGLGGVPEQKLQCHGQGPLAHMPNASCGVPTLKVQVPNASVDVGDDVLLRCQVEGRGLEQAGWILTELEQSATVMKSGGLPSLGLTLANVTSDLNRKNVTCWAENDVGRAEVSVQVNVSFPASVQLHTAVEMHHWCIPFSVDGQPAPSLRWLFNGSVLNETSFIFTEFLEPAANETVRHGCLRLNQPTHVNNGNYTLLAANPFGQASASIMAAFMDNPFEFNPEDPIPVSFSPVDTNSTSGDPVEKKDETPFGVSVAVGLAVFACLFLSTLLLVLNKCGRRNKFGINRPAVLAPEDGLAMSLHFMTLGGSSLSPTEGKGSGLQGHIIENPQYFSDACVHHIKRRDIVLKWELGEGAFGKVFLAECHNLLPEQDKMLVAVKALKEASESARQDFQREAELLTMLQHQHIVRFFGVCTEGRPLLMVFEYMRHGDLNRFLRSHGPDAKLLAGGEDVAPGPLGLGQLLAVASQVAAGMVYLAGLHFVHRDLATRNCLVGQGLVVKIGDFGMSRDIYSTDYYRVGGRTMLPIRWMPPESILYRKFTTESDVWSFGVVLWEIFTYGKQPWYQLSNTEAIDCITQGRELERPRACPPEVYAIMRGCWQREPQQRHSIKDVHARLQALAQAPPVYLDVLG
UniProt Q9NWZ3, sequence (whole entry, looked up): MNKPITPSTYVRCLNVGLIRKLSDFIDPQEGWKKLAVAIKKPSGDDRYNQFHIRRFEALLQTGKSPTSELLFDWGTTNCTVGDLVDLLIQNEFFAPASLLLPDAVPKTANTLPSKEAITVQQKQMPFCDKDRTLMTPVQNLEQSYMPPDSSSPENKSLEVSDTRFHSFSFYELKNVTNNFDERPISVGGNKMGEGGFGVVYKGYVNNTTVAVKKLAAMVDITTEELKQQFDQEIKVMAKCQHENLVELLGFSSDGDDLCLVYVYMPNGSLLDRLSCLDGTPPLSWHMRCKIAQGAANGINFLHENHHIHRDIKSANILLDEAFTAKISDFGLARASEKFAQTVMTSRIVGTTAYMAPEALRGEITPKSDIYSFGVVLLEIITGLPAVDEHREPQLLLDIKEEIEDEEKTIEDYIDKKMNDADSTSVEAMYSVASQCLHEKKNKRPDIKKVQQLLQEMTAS

Study 1
Cell line: HEK-293T-ACE2
Tested at: concentration not given
Relative to: vehicle
Quantity: cell number
C=CCN1CC[C@]23c4c5ccc(O)c4O[C@H]2[C@@H](OCCOCCOCCOCCOCCOCCOCCOC)CC[C@@]3(O)[C@H]1C5.O=C(O)C(=O)O: 101%
CNC(=C[N+](=O)[O-])NCCSCc1ccc(CN(C)C)o1: 104%
CCCCC(O)c1ccccc1 (stereo not drawn): 96.1%
O=C([O-])/C=C/C(=O)[O-].[Fe+2]: 84.8%
C=C1c2c(Cl)ccc(O)c2C(=O)C2=C(O)[C@]3(O)C(=O)C(C(N)=O)=C(O)[C@@H](N(C)C)[C@@H]3[C@@H](O)[C@H]12.O=C(O)c1cc(S(=O)(=O)O)ccc1O: 102%
CC(C)NCC(O)COc1ccc(COCCOC(C)C)cc1.CC(C)NCC(O)COc1ccc(COCCOC(C)C)cc1.O=C(O)/C=C/C(=O)O (racemic): 101%
CC(C(=O)[O-])c1cccc(Oc2ccccc2)c1.CC(C(=O)[O-])c1cccc(Oc2ccccc2)c1.[Ca+2] (stereo not drawn): 103%
Nc1nc2[nH]cc(CCc3ccc(C(=O)N[C@@H](CCC(=O)O)C(=O)O)cc3)c2c(=O)[nH]1: 89.7%
Cl.NCC(=O)CCC(=O)O: 99.4%

Study 2
Cell line: HaCaT
Tested at: 100 µM
Time: 36 h
Quantity: viability
CC(C)c1c(CN(C)C(C)Cc2ccccc2)n(C)n(-c2ccccc2)c1=O (stereo not drawn): 80.6%
C[C@]12C=CC(=O)C=C1CC[C@@H]1[C@@H]2CC[C@@]2(C)[C@H]1CC[C@]2(C)O: 94%
C[C@]12CC[C@H]3[C@@H](CCC4=CC(=O)CC[C@@]43C)[C@@H]1CC[C@@H]2O: 96.4%
C[C@]1(O)CC[C@H]2[C@@H]3CCC4=CC(=O)CC[C@]4(C)[C@@]3(F)[C@@H](O)C[C@@]21C: 97.5%
CCC1=C[C@@H]2CN3CCc4c([nH]c5ccccc45)[C@@](C(=O)OC)(C2)[C@@H]13: 113%

Study 3
Organism: Sarcocystis neurona
Effect on: parasite growth
Tested at: 10 µM
Quantity: inhibition
CC(C)[C@]12O[C@H]1[C@@H]1O[C@]13[C@]1(O[C@H]1C[C@H]1C4=C(CC[C@@]13C)C(=O)OC4)[C@@H]2O: 85.7%
O=C(O)C(Cl)Cl: -20.3%
Oc1cc(Cl)ccc1Oc1ccc(Cl)cc1Cl: 18.2%
C[C@]12CC[C@H]3[C@@H](CCC4=CC(=O)CC[C@@H]43)[C@@H]1CC[C@@H]2O: 5.9%
CC[C@]1(O)CC[C@H]2[C@@H]3CCC4=CCCC[C@@H]4[C@H]3CC[C@@]21C: -29.5%
CCC1(c2ccc(N)cc2)CCC(=O)NC1=O (stereo not drawn): -28%

Study 4
Compound: CC(C)(O)[C@H](F)CN1Cc2cc(NC(=O)c3cnn4cccnc34)c(N3CCOCC3)cc2C1=O
Quantity: EC50
JAK2: Tyrosine-protein kinase JAK2 (JAK2, Homo sapiens, UniProt O60674)
UniProt O60674, sequence (whole entry, looked up): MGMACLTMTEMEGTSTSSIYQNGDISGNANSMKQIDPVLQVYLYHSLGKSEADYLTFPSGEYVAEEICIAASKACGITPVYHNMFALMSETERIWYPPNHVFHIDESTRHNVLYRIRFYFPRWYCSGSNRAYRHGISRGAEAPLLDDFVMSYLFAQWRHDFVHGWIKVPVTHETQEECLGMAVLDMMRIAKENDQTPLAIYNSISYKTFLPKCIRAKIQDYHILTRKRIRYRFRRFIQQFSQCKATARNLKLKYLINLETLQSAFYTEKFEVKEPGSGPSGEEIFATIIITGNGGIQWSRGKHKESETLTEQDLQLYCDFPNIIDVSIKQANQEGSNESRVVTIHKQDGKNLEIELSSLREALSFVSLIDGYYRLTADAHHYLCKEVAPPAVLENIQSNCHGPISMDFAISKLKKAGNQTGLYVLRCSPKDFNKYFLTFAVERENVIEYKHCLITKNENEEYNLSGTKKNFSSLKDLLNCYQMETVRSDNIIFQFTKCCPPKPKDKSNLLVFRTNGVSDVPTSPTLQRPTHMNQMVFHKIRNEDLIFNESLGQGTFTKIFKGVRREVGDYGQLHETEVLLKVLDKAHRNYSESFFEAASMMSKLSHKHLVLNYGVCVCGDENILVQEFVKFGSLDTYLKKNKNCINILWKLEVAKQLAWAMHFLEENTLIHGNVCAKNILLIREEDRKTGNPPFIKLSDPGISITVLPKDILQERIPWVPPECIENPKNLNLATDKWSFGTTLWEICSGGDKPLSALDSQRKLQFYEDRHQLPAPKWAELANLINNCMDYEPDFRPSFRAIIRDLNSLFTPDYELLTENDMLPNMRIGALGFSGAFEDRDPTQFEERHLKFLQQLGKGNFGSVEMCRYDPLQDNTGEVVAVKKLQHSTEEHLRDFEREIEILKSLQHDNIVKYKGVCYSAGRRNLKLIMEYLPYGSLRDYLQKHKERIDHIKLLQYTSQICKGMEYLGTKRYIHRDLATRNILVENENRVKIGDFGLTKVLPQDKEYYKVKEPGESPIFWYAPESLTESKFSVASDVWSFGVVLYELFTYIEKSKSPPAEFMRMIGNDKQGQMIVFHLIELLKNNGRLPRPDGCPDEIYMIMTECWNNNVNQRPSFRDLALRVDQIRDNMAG
JAK1: Tyrosine-protein kinase JAK1 (JAK1, Homo sapiens, UniProt P23458)
UniProt P23458, sequence (whole entry, looked up): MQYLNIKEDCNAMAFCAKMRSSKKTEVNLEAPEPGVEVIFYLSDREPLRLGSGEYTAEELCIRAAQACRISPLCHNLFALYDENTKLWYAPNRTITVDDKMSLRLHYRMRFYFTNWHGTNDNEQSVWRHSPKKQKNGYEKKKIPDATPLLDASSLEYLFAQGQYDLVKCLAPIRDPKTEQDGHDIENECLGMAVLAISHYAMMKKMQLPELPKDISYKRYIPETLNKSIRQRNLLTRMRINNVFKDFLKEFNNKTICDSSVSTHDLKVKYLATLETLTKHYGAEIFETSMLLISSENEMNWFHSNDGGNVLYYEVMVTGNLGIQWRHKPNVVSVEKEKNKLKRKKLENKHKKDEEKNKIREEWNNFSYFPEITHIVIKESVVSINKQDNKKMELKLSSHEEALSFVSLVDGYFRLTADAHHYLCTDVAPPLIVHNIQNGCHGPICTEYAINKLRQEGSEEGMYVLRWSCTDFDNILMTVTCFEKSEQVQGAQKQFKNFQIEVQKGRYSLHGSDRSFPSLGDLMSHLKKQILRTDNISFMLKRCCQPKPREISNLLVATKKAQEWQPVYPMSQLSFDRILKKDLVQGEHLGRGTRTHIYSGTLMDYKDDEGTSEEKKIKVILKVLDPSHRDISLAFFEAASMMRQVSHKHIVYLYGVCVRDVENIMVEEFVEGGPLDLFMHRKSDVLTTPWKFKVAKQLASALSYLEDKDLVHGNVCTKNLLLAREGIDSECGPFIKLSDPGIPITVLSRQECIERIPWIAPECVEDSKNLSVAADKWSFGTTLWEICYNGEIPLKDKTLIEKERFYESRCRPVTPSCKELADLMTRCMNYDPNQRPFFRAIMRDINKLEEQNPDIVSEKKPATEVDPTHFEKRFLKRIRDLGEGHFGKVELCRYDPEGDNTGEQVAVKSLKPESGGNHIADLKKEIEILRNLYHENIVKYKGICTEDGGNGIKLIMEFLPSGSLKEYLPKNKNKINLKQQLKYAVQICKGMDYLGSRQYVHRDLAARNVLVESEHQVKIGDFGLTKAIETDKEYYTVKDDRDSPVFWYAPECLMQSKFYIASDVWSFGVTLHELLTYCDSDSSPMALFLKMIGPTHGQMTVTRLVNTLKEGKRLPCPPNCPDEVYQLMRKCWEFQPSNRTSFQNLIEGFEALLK
JAK2; target engagement, NanoBRET; live cells: > 50 µM
JAK1; target engagement, NanoBRET; live cells: > 50 µM
JAK2; target engagement in cells, BRET: > 50 µM
JAK1; target engagement in cells, BRET: > 50 µM
NTRK1 (Homo sapiens, UniProt P04629); binding, NanoBRET target engagement: 12.5 µM and 8.67 µM and 12 µM
IRAK4 (Homo sapiens, UniProt Q9NWZ3); target engagement, NanoBRET; live cells: 0.0023 µM

Study 5
Cell line: HEK-293T-ACE2-TMPRSS2
Method: cell count
Tested at: concentration not given
Quantity: viability
CCCS(=O)(=O)c1ncc(Cl)c(C(=O)N(Cc2ccccc2)c2ccccn2)n1: 87%
Cn1c(CN2CCN(C(=O)c3ccc4c(c3)OCO4)CC2)nc2cc(C(=O)N3CCCC3)ccc21: 85%
Cc1cc2c(cc1S(=O)(=O)N1CCCC(C(=O)N3CC(=O)Nc4ccccc43)C1)OCC(=O)N2 (stereo not drawn): 80%
Cc1oc2ncnc(N3CCCC(C(=O)NCCCc4ccccc4)C3)c2c1C (stereo not drawn): 74%
COc1ccc(Br)cc1C1CC(=O)Nc2c1c(C)nn2-c1nc2ccccc2[nH]1 (stereo not drawn): 78%
CCCCC(=O)NC(c1ccc(OC)c(OC)c1)c1ccc2cccnc2c1O (stereo not drawn): 73%
OCC1(CCOc2ccccc2)CCCN(c2ncnc3c2CCC3)C1 (stereo not drawn): 70%
Cc1ccc(C(=O)N2CCN(S(=O)(=O)c3ccc4c(c3)NC(=O)C(C)O4)CC2)s1 (stereo not drawn): 76%
CCOc1ccc(CCNc2ncnc3c2nc2n3CCCCC2)cc1OCC: 73%
Cc1ccc2[nH]cc(CN(C)CC3CCCCO3)c2c1 (stereo not drawn): 66%
O=C(Oc1cccc2c1C(=O)C=CC2=O)c1ccccc1: 69%
C#CCOc1ccc(C2C(C#N)=C(N)Oc3cc4c(cc32)OCO4)cc1Cl (stereo not drawn): 75%
CN(CC(=O)Nc1nc2ccc(Cl)cc2s1)S(=O)(=O)c1c[nH]c(C(=O)N2CCCCC2)c1: 72%
N#CCSc1ccccc1NC(=O)Cn1ncc(Cl)c(Cl)c1=O: 67%
CC(=O)Oc1cccc(C2OC(c3cccc(Br)c3)=NN2C(C)=O)c1OC(C)=O (stereo not drawn): 73%
Cc1cccc(CNC(=O)C2CCN(S(=O)(=O)c3cc(-c4noc(C5CC5)n4)ccc3C)CC2)c1: 69%
Cc1ccc(N2CCN(C(=O)CC3(CC4=Nc5ccccc5S(=O)(=O)N4)CCCC3)CC2)c(C)c1: 66%
COc1ccc(C2(C(=O)N3CCC(Cc4nc(-c5ccccc5)no4)CC3)CC2)cc1: 78%
Cc1ccc(S(=O)(=O)CCC(=O)Nc2nc(-c3nc4ccccc4s3)cs2)cc1: 77%
Cc1onc(-c2c(Cl)cccc2Cl)c1C(=O)On1c(-c2ccccc2)nc2ccccc2c1=O: 71%
COc1ccc(C(=O)N2c3cc(CNC(=O)c4ccnn4C)ccc3CC2C)cc1 (stereo not drawn): 68%
CCS(=O)(=O)N(C)c1ccc2sc(C(=O)Nc3ccc(Cl)cc3C)cc2c1: 76%
CCn1ccc2cc(-c3c(-c4ccccc4)ncn3CCC(N)=O)ccc21: 71%
COCCCN1CCn2c(nc3cc(NC(=O)NC4CCCCC4)ccc32)C1: 76%
Oc1c(Cl)cc(Cl)cc1C1Nc2cc(Cl)c(C(F)(F)F)cc2N1 (stereo not drawn): 65%

Excerpt of the above (study 1):
CNC(=C[N+](=O)[O-])NCCSCc1ccc(CN(C)C)o1: 104%
CCCCC(O)c1ccccc1 (stereo not drawn): 96.1%
O=C([O-])/C=C/C(=O)[O-].[Fe+2]: 84.8%
C=C1c2c(Cl)ccc(O)c2C(=O)C2=C(O)[C@]3(O)C(=O)C(C(N)=O)=C(O)[C@@H](N(C)C)[C@@H]3[C@@H](O)[C@H]12.O=C(O)c1cc(S(=O)(=O)O)ccc1O: 102%
CC(C)NCC(O)COc1ccc(COCCOC(C)C)cc1.CC(C)NCC(O)COc1ccc(COCCOC(C)C)cc1.O=C(O)/C=C/C(=O)O (racemic): 101%
CC(C(=O)[O-])c1cccc(Oc2ccccc2)c1.CC(C(=O)[O-])c1cccc(Oc2ccccc2)c1.[Ca+2] (stereo not drawn): 103%
